Measured values pooled from the literature.
Numbered parts are unrelated; each lists some results of a single study. Positions count from the first letter of the parent shown.

Sample 1 — technique: RNA Bind-n-Seq; molecule type: RNA; matrix: in vitro; concentration: 15 pmol; notes: 4-mer, random 30-nt RNA, single round; with: DMSO vehicle, 2 mM AMP-PNP; relative to: input library; direction: higher = stronger binding; quantity: 4-mer enrichment
Target: Eukaryotic initiation factor 4A-I (EIF4A1, Homo sapiens, UniProt P60842, residues 1-406, full length assumed)
Sequence of UniProt P60842 (whole entry, looked up): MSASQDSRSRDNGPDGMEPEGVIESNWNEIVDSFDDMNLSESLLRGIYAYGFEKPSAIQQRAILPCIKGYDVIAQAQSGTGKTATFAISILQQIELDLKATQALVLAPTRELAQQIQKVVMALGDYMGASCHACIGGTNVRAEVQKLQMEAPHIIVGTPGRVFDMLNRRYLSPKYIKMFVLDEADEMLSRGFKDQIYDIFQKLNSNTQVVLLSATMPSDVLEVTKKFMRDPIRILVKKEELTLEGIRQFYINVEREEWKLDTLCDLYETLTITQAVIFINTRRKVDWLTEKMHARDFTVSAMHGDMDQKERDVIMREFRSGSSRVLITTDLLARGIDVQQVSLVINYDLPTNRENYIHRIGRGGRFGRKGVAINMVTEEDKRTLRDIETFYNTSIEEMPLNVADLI
CCUU: 1.06 fold
UAUG: 0.877 fold
UCGU: 0.716 fold
GUCG: 0.874 fold
UGGG: 0.837 fold
AAGC: 1.55 fold
UCAU: 0.912 fold
AGUC: 0.953 fold
GCCC: 1.21 fold
GCAA: 1.13 fold
AGGG: 1.14 fold
UGCU: 1.18 fold
AUCA: 1.21 fold
GUGG: 0.871 fold
ACGA: 1.44 fold
ACAC: 1.13 fold

Sample 2 — technique: DHFR PCA, deep sequencing; matrix: yeast; with: (+)-ABA 17 µM; relative to: wild-type fitted maximum; direction: higher = stronger binding; quantity: relative binding score
Target: ABI1, truncated, D143A, DHFR fusion (Arabidopsis thaliana)
Notes: methotrexate growth selection, single substitutions
Starting sequence: PYL1, truncated, DHFR fusion (Arabidopsis thaliana); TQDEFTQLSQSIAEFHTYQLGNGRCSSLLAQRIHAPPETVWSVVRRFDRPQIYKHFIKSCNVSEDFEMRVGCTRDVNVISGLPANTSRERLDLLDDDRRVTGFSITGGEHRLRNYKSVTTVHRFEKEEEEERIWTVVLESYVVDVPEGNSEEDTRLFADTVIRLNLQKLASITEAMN
L20Y: 76.9%
E174A: 59.3%
S117G: 14.1%
I162N: 6.88%
R69C: 78.2%
E67I: 85.6%
I33S: 1.28%
L91A: -3.29%
A84N: 15.3%
R163F: -1.28%
P37N: 16.3%
T173M: 59.3%
R49N: 79.6%
L20I: 83.8%
T101D: -0.229%

Sample 3 — target: CREB3L4, bZIP domain (human); technique: DHFR protein complementation; matrix: yeast; relative to: wild-type JUN-FOS pair; direction: higher = stronger binding; quantity: binding fitness
Notes: single substitutions, most at no-binding floor
Starting sequence: JUN, bZIP domain (human); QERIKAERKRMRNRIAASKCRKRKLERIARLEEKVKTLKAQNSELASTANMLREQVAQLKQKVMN; partner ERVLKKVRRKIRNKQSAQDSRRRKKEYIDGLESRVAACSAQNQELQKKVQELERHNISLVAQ
Q41W: -1.44 natural log
S47D: -1.41 natural log
E44L: -1.39 natural log
S47M: -1.35 natural log
E54W: -1.46 natural log
L31Q: -1.48 natural log
K36P: -1.5 natural log
M51F: -1.5 natural log
L38N: -1.5 natural log
Q55K: -1.14 natural log
I28Y: -1.46 natural log
S47Y: -1.26 natural log
L52W: -1.5 natural log
E32D: -1.5 natural log
T48G: -1.51 natural log
E33A: -1.55 natural log
A57L: -1.4 natural log
Q55L: -1.5 natural log

Sample 4 — target: CCNA2, cyclin fold, Cln2 fusion (human); technique: yeast growth competition, sequencing; matrix: yeast; notes: strong parent motif; relative to: not given; direction: higher = stronger binding; quantity: normalised enrichment score
Starting sequence: BRCA2 docking peptide (human); PSIKRNLLNEFDR
PSIKRNLDNEFDR [L8D]: 0.364
PSIKRNQLNEFDR [L7Q]: 1.07
PSIKRNGLNEFDR [L7G]: 0.334
PSIKRNLLAEFDR [N9A]: 6.04
PSIKRNLLNEIDR [F11I]: 2.07
PSEKRNLLNEFDR [I3E]: 1.28
PSIKRNELNEFDR [L7E]: -0.923
PSIKRYLLNEFDR [N6Y]: 0.933
PSIKRNLLNEFDH [R13H]: 4.8
PSIKNNLLNEFDR [R5N]: 0.494
PSIKRNLLNEFRR [D12R]: 3.66
PSIKRNTLNEFDR [L7T]: 0.416
PSIKRNLLNYFDR [E10Y]: 3.42
PSIKRNLLNEHDR [F11H]: 0.078
PSIKTNLLNEFDR [R5T]: 1.26
PSIKRNLLNENDR [F11N]: -0.251

Sample 5 — technique: protein binding microarray; molecule type: double-stranded DNA, one strand shown; matrix: in vitro; concentration: not given; relative to: not given; direction: higher = stronger binding; quantity: E-score
Target: Histone acetyltransferase KAT6A, both winged helices, GST fusion (KAT6A, Homo sapiens, UniProt Q92794, residues 1-181)
Notes: 8-mer, flanks averaged, mean of 2 arrays, mostly near background
Construct (chain): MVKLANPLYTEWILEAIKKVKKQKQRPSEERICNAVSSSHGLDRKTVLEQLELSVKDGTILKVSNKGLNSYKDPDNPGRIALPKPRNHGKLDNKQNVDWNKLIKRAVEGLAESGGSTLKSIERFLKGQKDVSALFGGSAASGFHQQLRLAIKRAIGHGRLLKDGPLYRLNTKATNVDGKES
CCGAATTC: 0.172
GCGAAGAA: -0.00504
CGAGCCCG: 0.224
TTGTGAAA: -0.0269
CGATCCAC: -0.179
CTGAAGAC: -0.049
CGGCATGA: 0.3
GAGTCCTA: -0.159
AGGGTACA: -0.267
GCTAGAAA: 0.0989
ATCCTGGG: -0.104
CCACCCCG: 0.138
AAATTCAT: -0.088
GAACAAAC: -0.0529
CACAACCC: -0.0722
ATGATTTA: -0.129
AAAAGCAT: -0.123
CGTGCCGA: 0.205
TATCTCAA: -0.153
AGGGCTGG: -0.198
ACGTAGAA: -0.0598
ATAGCCGC: 0.366
CCGCCGAG: 0.257
CTTTCGTC: -0.0498
ACGCCGCT: 0.303

Sample 6 — technique: RNA Bind-n-Seq; molecule type: RNA; matrix: in vitro; concentration: not given; relative to: input RNA pool; direction: higher = stronger binding; quantity: bound/input enrichment
Target: RING finger protein unkempt homolog, zinc fingers 1-6, GST-SBP tag (UNK, Homo sapiens, UniProt Q9C0B0, residues 30-357)
Sequence of UniProt Q9C0B0 (30-357, looked up): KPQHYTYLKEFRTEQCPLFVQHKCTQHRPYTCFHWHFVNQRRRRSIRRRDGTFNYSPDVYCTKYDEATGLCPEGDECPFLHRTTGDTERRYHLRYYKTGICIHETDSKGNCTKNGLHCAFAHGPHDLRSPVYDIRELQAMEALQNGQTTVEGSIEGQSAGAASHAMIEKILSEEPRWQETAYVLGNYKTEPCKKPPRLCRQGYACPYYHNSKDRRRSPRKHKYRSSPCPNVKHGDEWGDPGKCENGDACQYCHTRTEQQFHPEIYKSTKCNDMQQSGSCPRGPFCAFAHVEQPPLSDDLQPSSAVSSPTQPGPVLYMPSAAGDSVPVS
Notes: RNA with constant flanks, human-mouse chimeric sites, ends assumed
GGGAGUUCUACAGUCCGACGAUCGAUCCACAGUGGUCUGAGGAGCAACUCAUUGCUGCAAAAUUCUGUUUUGCUGGCCUUCUUAUAGGCCAGACUGAAGUGGACAUCAUGAGUCAUGCCACACAGGCUAUUUUUGAAAUUCUGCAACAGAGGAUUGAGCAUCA: 0.128 ratio
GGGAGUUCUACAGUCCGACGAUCUGGCGCCUGCGCUCCCCACUCGUGUUUGUAUUUUUAUAAGAUGUAUAUACAUGUAUUUACAAUUGAGCUUUUGUUACAUAAUGCUGAAAUGCUACUGGAGAUUAUGAAAAAUGUUUCAAUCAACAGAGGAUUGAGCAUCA: 0.211 ratio
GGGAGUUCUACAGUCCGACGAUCCUGAGGAAUACCACUGAGAGACCUUAAAAGAAUCAUUUGAGGGCUCUCGUUCGGGCAGAAUAGUCACUGAUCGGGAAACUGGUUCUUCCAAAGGGUUUGGUUUUGUAGACUUUAAUAGUGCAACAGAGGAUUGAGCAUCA: 0.678 ratio
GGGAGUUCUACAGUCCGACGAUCAACAGAUUGUCUUUAAGCAUUCCAAGCGAGAAUGCUGGGGUGAUCAUAAUUACCCACAUAUAGUAAUACUGAGCUUUAAUGCUGUUCCAUGUUACAUCUUUCCUUCACUCCAGAAUUGUUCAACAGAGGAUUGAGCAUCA: 0.865 ratio
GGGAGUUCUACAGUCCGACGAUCUCUUUAAAAAAAAAAUUACCUUUUCUGACAGUGCUUUCCCUCCCAUAGGUCCAGGUUCAAGCUCAAAGAGCAAAGGCUCCGCAAACAGCUCAAACAUCUGAUGAAGAAAGAUUUCUGAGACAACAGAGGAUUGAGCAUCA: 0.687 ratio
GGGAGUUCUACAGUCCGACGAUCAUGGAAAAGGAUUCUCUGCCCCGCUUUGUGCGCUCUGAAUUUUAUAAGGAGCUAAUCAAGUAGUCAUCUGGUCAGGCUUCCAAAAGUUCCUGUGAGUGUUGAGUUACAUCCUUUGUAGCACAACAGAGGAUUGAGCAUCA: 0.333 ratio
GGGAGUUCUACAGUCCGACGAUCCCCCAAUACCAUUUGCAGGUCUGGAACUGCACUCUCUUUUUUAAAAAACAUGUAUACAUUUUAGGGCUGUAGAUUUACUUUCCUAUUUUUGUUUUUCAUUGCUGACUUUGAGCACAAGAACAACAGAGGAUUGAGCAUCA: 1.73 ratio
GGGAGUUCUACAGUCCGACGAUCCGGAGCCCUCCUCUCCCACAGGCCCAAGAUAUAACCCACCAGUGCCUUUUGUCUUCCCGUUAGCUUUGUCAAUCACGCCUGUCCUCUCACGCCCACACCAAGUGCCCAAAGUGGGGAGGGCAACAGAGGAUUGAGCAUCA: 14.2 ratio
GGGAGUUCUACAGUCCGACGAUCUUGUGCAAUGAUGCUUGAGAUGGUUUUUGCAAAAGCAGAAAUCGCUGCAAGGUAAUCACAAUAGAUAAAAGUGGUAUUUUAAACCUUUGAAAUAAAUGGAUGUAACUGUACGUUGGUACACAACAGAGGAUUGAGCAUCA: 0.923 ratio
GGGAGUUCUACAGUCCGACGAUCACAGUUAUACACUGUUGGUUUGUAUUUAUAUAUUCUUGUAGUGUCUGCUUGCCUGUGACUUCUGGUAAAAUAAAAUAAGCCUUUGAAAAUAUUUUAGCAUGGUAUUUAACAUUUUCUAAACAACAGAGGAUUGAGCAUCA: 1.21 ratio
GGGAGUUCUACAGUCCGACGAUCAUGGAAAAGGAUUCUCUGCCCCGCUUUGUGCGCUCUGAAUUUUAUAAGGAGUUAAUCAAGUAGUCAUCUGGUCAGGCUUCCAAAAGUUGCCCUGUGAGUUGAGUUACAUCCUUUGUAGCACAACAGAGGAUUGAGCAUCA: 0.198 ratio

A few entries again (sample 5):
AAAAGCAT: -0.123
CGTGCCGA: 0.205
TATCTCAA: -0.153
AGGGCTGG: -0.198
ACGTAGAA: -0.0598
ATAGCCGC: 0.366
